Assay results gathered from unrelated publications.
Every numbered part comes from another study and shows a few of its results, in no order. Positions count from the first letter of the parent shown.

Series 1
Target: CCNB1, cyclin fold, Cln2 fusion (human)
Method: yeast growth competition, sequencing
Matrix: yeast
Notes: weak parent motif
Reference: not given
Reading: higher = stronger binding
Starting sequence: CDC6 docking peptide (human); TLKGRRLVFDNQL
Variant	normalised enrichment score
MLKGRRLVFDNQL [T1M]	0.322
TLKGRILVFDNQL [R6I]	-0.00686
TLKGRRLCFDNQL [V8C]	1.08
TLQGRRLVFDNQL [K3Q]	0.313
TLKGRRKVFDNQL [L7K]	1.08
TLKGSRLVFDNQL [R5S]	-0.00176
TLKGRRLVFDNEL [Q12E]	-0.528
TLKGRRLVFDNVL [Q12V]	0.471
TLKGRRLVSDNQL [F9S]	1.03
TLKGRRLVFDNHL [Q12H]	0.235
TLKGRRLVFDNQY [L13Y]	0.196
TNKGRRLVFDNQL [L2N]	-0.202
TLKGRRLVFGNQL [D10G]	-1.14
TLKGRRLVFDNQW [L13W]	1.35

Series 2
Target: Hepatocyte nuclear factor 3-alpha (Foxa1, Mus musculus, UniProt P35582, residues 1-468, full length assumed)
Method: EMSA with sequencing
Form: double-stranded DNA, one strand shown
Matrix: in vitro
Tested at: 10 and 20 nM
Notes: whole designed probe, mean of two concentrations, ends assumed
Reference: negative control set to 0
Reading: higher = stronger binding
Residues (chain): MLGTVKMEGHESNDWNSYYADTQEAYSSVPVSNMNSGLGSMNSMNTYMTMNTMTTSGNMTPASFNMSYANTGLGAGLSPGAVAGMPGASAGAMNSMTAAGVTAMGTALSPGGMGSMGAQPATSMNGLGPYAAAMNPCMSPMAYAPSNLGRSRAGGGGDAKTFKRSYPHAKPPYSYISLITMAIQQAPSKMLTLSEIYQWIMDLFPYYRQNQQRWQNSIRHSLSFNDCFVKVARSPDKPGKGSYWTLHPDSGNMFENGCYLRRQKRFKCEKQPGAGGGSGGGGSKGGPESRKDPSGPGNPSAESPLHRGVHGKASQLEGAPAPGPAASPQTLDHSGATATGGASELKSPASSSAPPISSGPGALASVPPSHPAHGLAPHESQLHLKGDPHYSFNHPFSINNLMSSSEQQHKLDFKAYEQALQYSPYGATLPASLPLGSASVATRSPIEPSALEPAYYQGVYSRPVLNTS
Strand	normalised bound fraction [ratio]
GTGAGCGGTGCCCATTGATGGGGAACGTGTGTGCGCGCGCGTGTGTGTGTGTTTTCTTAAGCCGGGCTATTCAAACCCTGCTGCAATTCTCCGGTAAACAATGTTACATGGGGCATAATGCAAATAAACGGATTGCAAACGGCGCGCAATGATTCATTTGCAGCCGGCCCGGTGGAGCAGCCAGTGCCGGATTTCTCCCTTTTTTTGCAGATCTGCAGATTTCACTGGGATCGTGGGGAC	0.386
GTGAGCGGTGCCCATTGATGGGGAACATCTTCCCCCTCTTCCTTGCCCCACCAGCTCACCTTCCCGGGTATCTGCAAATAAGTATTTATTTTCAAGCCGGCATTCGTTAACCCTCTTCACGCGCATACTGCCAGAGCAAACAGATGAATCATGGTCCTTTGGCGACGCCAGGCTCCGGGAGAGCAAAGCACCGTGTCAGGGCCATGATCCGGGGTGGCCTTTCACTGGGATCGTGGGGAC	0.245
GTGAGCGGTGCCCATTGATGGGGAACATCTTCCCCCTCTTCCTTGCCCCACCAGCTCACCTACGGGGGTTATTTGCACAAAGGAAAATAAATAAAGCCGGCATTCGTTAACGCAGTTCACGCGCATACTGCTGTTTGCTCTGCATCTAACATGGTCCTTACGCGACGCCAGGCTCCGGGAGAGCAAAGCACCGTGTCAGGCGCATGATCCGGGGTGGCCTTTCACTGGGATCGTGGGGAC	0.4
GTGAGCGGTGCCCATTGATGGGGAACAGTGCCAAGAACTGCCATTTACACTCGGAAGCGCTCCAGGGAAGGTTAATACTACTGTGATTAATACAGATTACAGAGCCAATAAATTTTAGGTAATCTCCCAAAGGAGAGTTAAAGAGTTGTCTCATCGGTCCCATAAAGGCTGGTAAAAGGGGCGGGGAATGGTTCCACGCCAACCCTGTCCGTCACCGCATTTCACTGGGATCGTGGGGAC	-0.0773
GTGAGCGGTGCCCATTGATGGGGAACTATGTTTATTTCATTTTCTCCACAAGAGATTCTTTCTCACAGTCAGAACGTGTGGCTTAGCACTACCTAGGGAGCTTGTTTGCCTCCATTTTCTTGTTTACTTAACAGAGAATGGGAGGCAGAAGTTAAAGCCCAGCAATGTCTTTTAGCTACACTTTGTATTAGTACTTCCATCTTCCTCTTCTTAACTAGGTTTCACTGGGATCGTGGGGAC	0.537
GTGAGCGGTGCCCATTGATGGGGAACAAAGAAAGCAGCTCACTGGGTGAAGGACCTTGAGAAAGAGATGAACATTTCCTCTCTTGAGACACAGGACAAACAAGGTCACGCCTGAGCTCGGCAAACAAGGACTTCGGTGCCTGCCTACGGCGCCATTGCGCCCTCTAGTGGCTGCTGAGGAACCGCTGTCCAGCCCGAAGCTCACAGAGCCCCGTTCAGGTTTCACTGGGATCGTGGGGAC	0.1
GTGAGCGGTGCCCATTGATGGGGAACCTTCTCCAGTTGAGTTTTCTTCATTCTGCAAATATGTGGCATTGGAAGCTGGAAAGAGGCTACTTGGCTGAAACCTTTCTGATGGAGTCTATGTAAACATACAGAAGAAAAAATGTGTAACTAAGGTTCATATCCCTTAAAAAGAATATGTAGACAATTCAAGTGGCTGTATTAAAAGTTTCACATTCTACCATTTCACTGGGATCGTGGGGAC	0.442
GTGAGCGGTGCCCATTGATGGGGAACGTGTGTGCGCGCGCGTGTGTGTGTGTTTTCTTAAGCCGGGCTATTCAAACCCTGCTGCAATTCTCCGGTAAAGGCAATGATTCATGGCACGTTTATTTGCATTAGATTGCAAACGGCGCGGTTCGCGCACTTTGCAGCCGGCCCGGTGGAGCAGCCAGTGCCGGATTTCTCCCTTTTTTTGCAGATCTGCAGATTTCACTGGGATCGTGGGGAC	0.421

Series 3
Target: ABI1, truncated, D143A, DHFR fusion (Arabidopsis thaliana)
Method: DHFR PCA, deep sequencing
Matrix: yeast
Notes: methotrexate growth selection, single substitutions
With: (+)-ABA 58 µM
Reference: wild-type fitted maximum
Reading: higher = stronger binding
Starting sequence: PYL1, truncated, DHFR fusion (Arabidopsis thaliana); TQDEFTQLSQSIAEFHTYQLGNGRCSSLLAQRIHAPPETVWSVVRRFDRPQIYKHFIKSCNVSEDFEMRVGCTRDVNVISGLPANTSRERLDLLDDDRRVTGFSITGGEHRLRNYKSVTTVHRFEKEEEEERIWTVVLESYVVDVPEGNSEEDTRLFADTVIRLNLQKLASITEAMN; partner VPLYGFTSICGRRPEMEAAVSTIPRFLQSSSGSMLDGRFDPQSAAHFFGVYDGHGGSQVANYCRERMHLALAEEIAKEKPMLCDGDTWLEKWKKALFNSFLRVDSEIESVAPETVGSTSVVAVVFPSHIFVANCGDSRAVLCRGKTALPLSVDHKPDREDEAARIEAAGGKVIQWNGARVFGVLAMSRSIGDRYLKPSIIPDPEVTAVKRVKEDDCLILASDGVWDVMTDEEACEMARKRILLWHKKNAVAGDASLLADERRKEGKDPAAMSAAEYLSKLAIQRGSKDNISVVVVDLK
Variant	relative binding score
I105V	89.5%
R111F	27%
D144P	43.1%
A13T	75.2%
E139N	72%
N165S	19.8%
F66N	71.4%
T101G	-2.46%
N114E	29%
T101K	3.74%
D92I	40.3%
Q2S	83%
R74D	0.0456%
E151A	88.7%
T1Q	92.6%

Series 4
Target: Sal-like protein 4, full length isoform A (SALL4, Homo sapiens, UniProt Q9UJQ4, residues 1-1053)
Sequence of UniProt Q9UJQ4 (whole entry, looked up): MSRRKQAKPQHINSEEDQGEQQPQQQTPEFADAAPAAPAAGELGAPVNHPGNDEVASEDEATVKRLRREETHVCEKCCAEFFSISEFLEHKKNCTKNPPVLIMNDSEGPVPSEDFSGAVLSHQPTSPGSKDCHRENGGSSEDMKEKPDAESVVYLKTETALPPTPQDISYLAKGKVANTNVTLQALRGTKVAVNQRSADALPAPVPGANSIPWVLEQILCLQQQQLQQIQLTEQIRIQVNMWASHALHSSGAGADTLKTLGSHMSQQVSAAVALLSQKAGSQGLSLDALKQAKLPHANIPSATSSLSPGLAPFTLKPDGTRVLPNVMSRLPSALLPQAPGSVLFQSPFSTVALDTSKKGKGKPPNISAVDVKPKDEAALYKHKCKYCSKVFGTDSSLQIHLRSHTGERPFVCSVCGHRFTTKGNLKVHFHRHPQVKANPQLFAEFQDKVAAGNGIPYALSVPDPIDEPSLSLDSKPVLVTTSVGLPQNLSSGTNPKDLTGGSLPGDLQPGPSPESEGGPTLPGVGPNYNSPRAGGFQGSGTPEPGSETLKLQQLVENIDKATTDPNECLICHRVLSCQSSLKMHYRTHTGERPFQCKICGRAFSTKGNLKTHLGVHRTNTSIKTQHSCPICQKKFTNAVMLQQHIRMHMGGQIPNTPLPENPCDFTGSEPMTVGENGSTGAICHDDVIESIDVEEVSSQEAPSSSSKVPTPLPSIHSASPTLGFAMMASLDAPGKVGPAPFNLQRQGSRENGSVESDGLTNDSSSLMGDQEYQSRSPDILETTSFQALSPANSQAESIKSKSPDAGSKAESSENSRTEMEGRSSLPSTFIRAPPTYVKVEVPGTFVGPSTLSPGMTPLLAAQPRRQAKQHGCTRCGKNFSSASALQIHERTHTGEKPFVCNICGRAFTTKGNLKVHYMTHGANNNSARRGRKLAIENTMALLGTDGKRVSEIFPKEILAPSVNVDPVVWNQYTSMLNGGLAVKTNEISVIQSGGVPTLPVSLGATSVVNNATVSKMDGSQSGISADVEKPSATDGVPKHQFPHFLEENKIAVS
Method: universal PBM
Form: double-stranded DNA, one strand shown
Matrix: in vitro
Tested at: 600 nM
Notes: 8-mer, flanks averaged, mean of replicates
Reading: higher = stronger binding
Strand	E-score
ACTACAGA	0.259
ACCCTCTA	-0.0211
GATTTTGC	0.0156
AGCCTCCT	-0.203
TCGTTACA	0.0107
AGAAACCT	-0.138
AACGACCC	-0.254
ATCTGCGC	-0.198
ATCTTGGG	-0.0794
CTATTGAG	0.129
CGCACGCG	-0.266
AACTTGAG	-0.127
CAGTTAAA	0.182
TGCGGGAA	-0.11
CATCGCTA	0.00949
ATGGAGCC	-0.147
CATACGCG	-0.0592
CGGTTGAA	0.00669
CCGCGTTC	-0.251
GACTCCGC	-0.309
CGTTATCA	0.262
ACAGCTTG	-0.133
CCAAACGC	-0.183
CCTAGCCG	-0.159
ACACACTC	0.0534

Series 5
Target: Centromere-binding protein 1, full length, His-tagged (CBF1, Saccharomyces cerevisiae, UniProt P17106, residues 1-351)
Sequence of UniProt P17106 (whole entry, looked up): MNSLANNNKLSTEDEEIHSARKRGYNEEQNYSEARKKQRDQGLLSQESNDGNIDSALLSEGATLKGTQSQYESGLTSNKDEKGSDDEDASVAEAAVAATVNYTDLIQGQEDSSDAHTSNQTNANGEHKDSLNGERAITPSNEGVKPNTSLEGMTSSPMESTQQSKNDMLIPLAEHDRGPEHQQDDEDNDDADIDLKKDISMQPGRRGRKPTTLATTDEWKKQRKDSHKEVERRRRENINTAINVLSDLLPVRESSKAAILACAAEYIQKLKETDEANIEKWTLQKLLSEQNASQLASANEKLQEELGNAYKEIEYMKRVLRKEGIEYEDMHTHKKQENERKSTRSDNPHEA
Method: competition protein-binding microarray
Form: double-stranded DNA, one strand shown
Matrix: in vitro
Tested at: 2 µM
Notes: whole 60-bp probe, lowest competitor level
With: Pho4 competitor, 0.05 µM
Reading: higher = stronger binding
Strand	fluorescence intensity [a.u.]
AAATTACTAAGTTTTCACGTGGTCTACCCCGTATGAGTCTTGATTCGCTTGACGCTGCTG	1460
CAGAAGGAGAGACTGAACGTGTACTTCAACGAGGCAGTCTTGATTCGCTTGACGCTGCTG	63.6
CTGAGCAAATTCTGTGACCTGCAATTTTACTTGTTCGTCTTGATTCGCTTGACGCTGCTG	85.8
AAACTGGGAGAAAGTGACGTGATGGAGGAAATTATGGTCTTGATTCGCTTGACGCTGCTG	97.3
CTAACGAAGGTTTGATATGTGGGTGACAAGCCAAGTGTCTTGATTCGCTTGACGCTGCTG	74.3
AGAATCAGGCATTCGCGTGTGACGGGCGTCATTCATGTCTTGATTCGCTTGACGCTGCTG	68.4
AACCTCTCAACAAAGCACGCTATGTACACACATCTAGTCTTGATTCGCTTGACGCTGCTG	75.1
CTAACGAAGGTTTGGGGTGTGGGTGACAAGCCAAGTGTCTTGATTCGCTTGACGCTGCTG	64.1
TGCGCAACAACTTGGCCAGTGGGTGTATGTCTAGAAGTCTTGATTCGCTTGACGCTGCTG	56.4
GCTATTCGTTTTATAAATGAAGTTCTTTCCACAAGTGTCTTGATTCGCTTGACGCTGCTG	88.2
CTTTCCCGATCTTGTCACGATACTTTAGCACATTTGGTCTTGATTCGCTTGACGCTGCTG	259
TGCGCAACAACTTGGTGCGTGGGTGTATGTCTAGAAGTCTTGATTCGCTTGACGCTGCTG	71.6
GAACAAGGTGCCCGTCACATGGCAGAAGGCTACGCCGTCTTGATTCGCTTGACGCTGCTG	376
AAAGCGGTAATTTGCGCGGTGGGTGCAGATATCTATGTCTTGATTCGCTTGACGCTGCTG	72.4
AGAGGAGATCCCTGGCACGCTCACTGCGCCTTTCAAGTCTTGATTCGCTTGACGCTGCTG	61.6
AAGACTGTACATTCACACGGGAAACGAGAGAAAGAAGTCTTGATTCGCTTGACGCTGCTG	68.3
CTGACGGCAACGCGACGCGTGACGGGTAAGATAAGAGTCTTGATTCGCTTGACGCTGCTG	220
CAATGGTTACTTCGACACATGCCACTAAGACAATACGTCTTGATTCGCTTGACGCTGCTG	103
CTTTCCCGATCTTGTCACAGGACTTTAGCACATTTGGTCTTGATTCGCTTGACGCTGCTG	111

Some of these lines once more (series 3):
Variant	relative binding score
I105V	89.5%
E151A	88.7%
N165S	19.8%
R111F	27%
T101G	-2.46%
Q2S	83%
T101K	3.74%
E139N	72%
D92I	40.3%
A13T	75.2%
N114E	29%
T1Q	92.6%
